# Measurements gathered from unrelated publications.
# Parts stem from different laboratories: compare values within a part only.

# Series 1
# Target: Sal-like protein 4, full length isoform A (SALL4, Homo sapiens, UniProt Q9UJQ4, residues 1-1053)
# Chain of UniProt Q9UJQ4 (whole entry, looked up): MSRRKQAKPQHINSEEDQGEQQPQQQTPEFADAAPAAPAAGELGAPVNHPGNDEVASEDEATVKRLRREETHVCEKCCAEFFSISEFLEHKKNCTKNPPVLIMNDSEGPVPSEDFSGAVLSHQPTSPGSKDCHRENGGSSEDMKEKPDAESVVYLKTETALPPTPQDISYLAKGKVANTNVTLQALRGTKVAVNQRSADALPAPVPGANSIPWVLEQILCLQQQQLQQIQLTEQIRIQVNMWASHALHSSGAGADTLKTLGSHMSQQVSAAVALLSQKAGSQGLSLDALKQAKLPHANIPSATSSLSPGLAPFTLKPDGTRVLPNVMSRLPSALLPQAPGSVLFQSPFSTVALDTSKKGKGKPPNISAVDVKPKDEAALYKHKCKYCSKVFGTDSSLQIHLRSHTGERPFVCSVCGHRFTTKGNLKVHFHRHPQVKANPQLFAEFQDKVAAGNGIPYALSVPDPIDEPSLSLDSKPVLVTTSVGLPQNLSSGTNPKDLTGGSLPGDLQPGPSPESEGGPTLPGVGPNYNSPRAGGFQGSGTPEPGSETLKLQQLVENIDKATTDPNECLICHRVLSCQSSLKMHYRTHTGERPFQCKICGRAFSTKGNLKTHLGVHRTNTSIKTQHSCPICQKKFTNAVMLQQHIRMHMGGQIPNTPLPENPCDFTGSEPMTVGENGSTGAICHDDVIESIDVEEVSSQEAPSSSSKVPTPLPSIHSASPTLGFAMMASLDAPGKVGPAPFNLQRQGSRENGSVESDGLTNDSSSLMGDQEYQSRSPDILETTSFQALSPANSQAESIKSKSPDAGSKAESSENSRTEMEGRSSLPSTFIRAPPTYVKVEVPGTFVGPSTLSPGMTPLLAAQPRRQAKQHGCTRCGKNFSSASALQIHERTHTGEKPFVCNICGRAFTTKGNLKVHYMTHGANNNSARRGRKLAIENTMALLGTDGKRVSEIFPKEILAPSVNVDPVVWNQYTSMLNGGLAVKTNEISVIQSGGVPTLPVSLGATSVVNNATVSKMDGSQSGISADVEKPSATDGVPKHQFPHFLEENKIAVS
# Technique: universal PBM
# Form: double-stranded DNA, one strand shown
# Medium: in vitro
# Tested at: 600 nM
# Notes: 8-mer, flanks averaged, mean of replicates
# Reading: higher = stronger binding
Oligonucleotide,E-score
TGCTGGAA,-0.00597
GGGGGGCA,-0.308
AAGGTAAC,0.0806
CACATTGC,0.0403
CAAAAAGG,0.0751
CCTACGAG,-0.144

# Series 2
# Target: Centromere-binding protein 1, full length, N-terminal tag (CBF1, Saccharomyces cerevisiae, UniProt P17106, residues 1-351)
# Chain of UniProt P17106 (whole entry, looked up): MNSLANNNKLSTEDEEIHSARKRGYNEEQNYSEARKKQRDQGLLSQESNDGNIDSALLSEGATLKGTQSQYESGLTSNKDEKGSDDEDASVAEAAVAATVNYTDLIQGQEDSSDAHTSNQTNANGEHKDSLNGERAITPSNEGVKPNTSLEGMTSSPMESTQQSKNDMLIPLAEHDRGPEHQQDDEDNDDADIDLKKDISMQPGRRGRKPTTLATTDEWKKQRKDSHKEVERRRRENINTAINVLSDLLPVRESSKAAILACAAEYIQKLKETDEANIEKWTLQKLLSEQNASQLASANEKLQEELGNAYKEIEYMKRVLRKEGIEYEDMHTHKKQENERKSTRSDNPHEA
# Technique: protein-binding microarray
# Form: double-stranded DNA, one strand shown
# Medium: in vitro
# Tested at: 0.8 µM
# Notes: whole 60-bp probe, no competitor
# Reading: higher = stronger binding
Oligonucleotide,fluorescence intensity [a.u.]
CTAGGATTACGCAAACACACGCACAGATACAATTTCGTCTTGATTCGCTTGACGCTGCTG,555
CTATAAATTTGAAATTACGTGTCACTTCGTTTTTTCGTCTTGATTCGCTTGACGCTGCTG,502
CTAACTAGGTATTTACACGTGAAAGTATTGAATTTCGTCTTGATTCGCTTGACGCTGCTG,2230
CTAGTGTGGCTGCACCGCACCACCTTGCAGGTCTTCGTCTTGATTCGCTTGACGCTGCTG,473

# Series 3
# Target: Transcription factor SOX-2, HMG box (Sox2, Mus musculus, UniProt P48432, residues 41-119)
# Chain of UniProt P48432 (41-119, looked up): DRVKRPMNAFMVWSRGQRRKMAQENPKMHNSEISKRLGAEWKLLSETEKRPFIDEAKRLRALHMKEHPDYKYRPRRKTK
# Technique: Spec-seq
# Form: double-stranded DNA, one strand shown
# Medium: in vitro
# Tested at: not given
# Notes: whole probe, mean of replicates
# Baseline: not given
# Reading: lower = stronger binding
Oligonucleotide,relative binding energy [ln ratio]
GAGTCGTCTCGTCAGCACCTAAGTTCCGTAGAGCACTCAGGTC,0.648
GAGTCGTCTCGTCAGCACATTTGTTCCGTAGAGCACTCAGGTC,-1.67
GAGTCGTCTCGTCAGCACTTGAGTTCCGTAGAGCACTCAGGTC,0.682
GAGTCGTCTCGTCAGCACGGAGGTTCCGTAGAGCACTCAGGTC,1.39

# Other studies, line by line
Substance,target,test,test system,conditions,scale,endpoint,value
"PhoQ, residues 284 288 289 292 302 303 SCKMEA","PhoP, residues 12 14 15 18 19 LYFRQ (Escherichia coli, UniProt P23836)","Sort-seq, measured: YFP reporter",E. coli,"PhoQ-PhoP variant library, with: 10 µM Mg2+","baseline: high Mg2+ state, higher = stronger signaling",fold induction,4.28
